{"data": "Results collected from several papers", "target": "Serine/threonine-protein kinase 3 (STK3, Homo sapiens, UniProt Q13188)", "Residues used in one study (Q13188 1-491)": "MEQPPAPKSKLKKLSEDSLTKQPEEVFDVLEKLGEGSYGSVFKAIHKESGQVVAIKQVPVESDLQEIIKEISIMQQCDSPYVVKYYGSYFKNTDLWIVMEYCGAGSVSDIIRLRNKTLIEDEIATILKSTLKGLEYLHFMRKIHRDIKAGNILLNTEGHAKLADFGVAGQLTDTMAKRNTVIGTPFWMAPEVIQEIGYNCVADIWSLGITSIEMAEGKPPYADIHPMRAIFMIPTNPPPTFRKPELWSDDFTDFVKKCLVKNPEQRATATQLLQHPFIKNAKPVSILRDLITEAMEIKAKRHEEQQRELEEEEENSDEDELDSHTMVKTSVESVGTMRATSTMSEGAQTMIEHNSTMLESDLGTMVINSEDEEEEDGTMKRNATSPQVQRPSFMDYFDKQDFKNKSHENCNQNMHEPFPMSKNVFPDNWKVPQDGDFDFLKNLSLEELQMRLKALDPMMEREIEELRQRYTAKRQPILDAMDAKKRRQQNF", "note": "Each line is one published result; not all experiments were run side by side. Values joined by “and” are separate records of one study, mostly repeats; a detail may differ."}
{"Compound": "COc1cc(Nc2nc(C)cc(-c3cnn4nc(OC)ccc34)n2)cc(C(F)(F)F)c1", "test": "inhibitor", "conditions": "1 µM, MST2", "how to read": "reference: control", "quantity": "remaining activity", "result": "100%"}
{"Compound": "CS(=O)(=O)Nc1cccc(-c2csc3cnc(Nc4ccc(N5CCN(CCCCCOc6cccc7c6C(=O)N(C6CCC(=O)NC6=O)C7=O)CC5)cc4)nc23)c1 (stereo not drawn)", "test": "probe labelling, inhibitor, KiNativ chemoproteomics", "test system": "MOLT-4", "conditions": "1 µM", "quantity": "inhibition", "result": "-13%"}
{"Compound": "C=CC(=O)Nc1cccc(-c2cnc3[nH]cc(C(=O)NC(C)(C)C)c3n2)c1", "test": "enzyme activity, inhibitor", "conditions": "0.1 µM", "quantity": "inhibition", "result": "73%"}
{"Compound": "CCN1CCN(Cc2ccc(C(=O)Nc3ccc(C)c(NCc4cnc5[nH]ccc5c4OC)c3)cc2C(F)(F)F)CC1", "test": "binding, competition with immobilised ligand", "conditions": "1 µM", "quantity": "remaining binding", "result": "41%"}
{"Compound": "Nc1nc(Nc2ccccc2)sc1C(=O)c1ccccc1", "test": "enzyme activity, inhibitor", "conditions": "10 µM", "quantity": "remaining activity", "result": "42%"}
{"Compound": "NC(=O)[C@@H](O)C[C@H]1CCc2sc3ncnc(O[C@H]4CC[C@H](N5CCOCC5)CC4)c3c21", "test": "enzyme activity, inhibitor", "conditions": "10 µM", "quantity": "inhibition", "result": "-1%"}
{"Compound": "Cc1ccc(-c2c(/C=C(\\C#N)C(=O)NC(C)C)n(CCCO)c3ncnc(N)c23)cc1", "test": "cell-free assay, competition with immobilised ligand", "conditions": "1 µM", "quantity": "remaining binding", "result": "100%"}
{"Compound": "CC(C)=CC1OC(C)(C)C2C=C3C(=O)C(Cl)=CC(O)C3C3C(O)C4OC4C(=O)C132 (stereo not drawn)", "test": "cell-free assay, competition with immobilised ligand", "conditions": "10 µM", "quantity": "remaining binding", "result": "100%"}
{"Compound": "Cc1cccc(-c2ccc3nc(NC(=O)C4CCCO4)nn3c2)c1 (stereo not drawn)", "test": "enzyme activity, Dundee kinase panel", "conditions": "10 µM", "quantity": "remaining activity", "result": "100%"}
{"Compound": "COC(=O)[C@@]1(C)C=C(C(=O)Nc2cccc(C(=O)Nc3ccc(Nc4nccc(-c5cccnc5)n4)c(C)c3)c2)C(=O)CC1", "test": "enzyme activity, inhibitor, radiometric", "conditions": "1 µM", "quantity": "remaining activity", "result": "90%"}
{"Compound": "CN1CC[C@@H](COc2cnc(C#N)cc2-c2ccn3nc(NC(=O)C4CC4)cc3c2)C1", "test": "enzyme activity, inhibitor", "conditions": "1 µM", "quantity": "inhibition", "result": "-18%"}
{"Compound": "COCC12C(=O)NC3C4(C(OC)CC1O)C1CC5(O)C(OC)C(O)C(OC(C)=O)(C1C5OC(=O)c1ccccc1)C3(O)C(OC)C24 (stereo not drawn)", "test": "kinase activity, inhibitor, ProQinase kinase profiling", "conditions": "25 µM", "how to read": "reference: control", "quantity": "remaining activity", "result": "86% and 93%"}
{"Compound": "CNC1C[S+]2CC[S+]3CC[S+](C1)[Ru-4]321([N]=C=S)[n]2c3ccc(OC)cc3c3c4c(c5cc(F)c[n+]1c5c32)C(=O)NC4=O (stereo not drawn)", "test": "KinomeScan", "conditions": "0.1 µM", "how to read": "reference: untreated", "quantity": "remaining binding", "result": "95%"}
{"Compound": "Cc1ccc(C(=O)Nc2ccc(CN3CCN(C)CC3)c(C(F)(F)F)c2)cc1C#Cc1cnc2cccnn12", "test": "target engagement, NanoBRET", "test system": "human cells", "quantity": "upper asymptote", "result": 73.6}
{"Compound": "c1ccc2c(Nc3cc(C4CCC4)[nH]n3)nc(Nc3ccc4nc[nH]c4c3)nc2c1", "test": "enzyme activity, inhibitor", "conditions": "0.25 µM", "quantity": "remaining activity", "result": "2%"}
{"Compound": "COc1ccc(C(=O)/C=C/c2ccccc2-c2c[nH]c3ccc(C#N)cc23)c(O)c1", "test": "enzyme activity, inhibitor", "conditions": "20 µM", "quantity": "inhibition", "result": "5%"}
{"Compound": "Cc1cccc(O[C@H]2CCC[C@@H](C(C)CNCc3ccncc3)C2)c1 (relative stereo)", "test": "enzyme activity, inhibitor", "conditions": "10 µM", "quantity": "inhibition", "result": "0%"}
{"Compound": "CCn1cc(C(=O)O)c(=O)c2c(N)c(F)c(NC3CCCCC3)cc21", "test": "kinase activity", "conditions": "0.1 µM, with: ATP at Km", "quantity": "inhibition", "result": "-23.6%"}
{"Compound": "CN1CCN(Cc2ccc(-c3ccc(CO[C@H]4CCC[C@@H]4NC(=O)c4cc(-c5cnn(C)c5)cnc4N)cc3)cc2)CC1", "test": "enzyme activity, inhibitor", "conditions": "0.1 µM", "quantity": "inhibition", "result": "3%"}
{"Compound": "Cc1cccc(-c2ccc3nc(NC(=O)C4CCOCC4)nn3c2)c1", "test": "enzyme activity, Dundee kinase panel", "conditions": "10 µM", "quantity": "remaining activity", "result": "94%"}
{"Compound": "O=c1c(-c2ccc(Cl)c(CN3CCOCC3)c2)coc2cc(O)ccc12", "test": "enzyme activity, inhibitor", "conditions": "1 µM", "quantity": "remaining activity", "result": "110%"}
{"note": "Excerpt of the above:"}
{"Compound": "COC(=O)[C@@]1(C)C=C(C(=O)Nc2cccc(C(=O)Nc3ccc(Nc4nccc(-c5cccnc5)n4)c(C)c3)c2)C(=O)CC1", "test": "enzyme activity, inhibitor, radiometric", "conditions": "1 µM", "quantity": "remaining activity", "result": "90%"}
{"Compound": "CCN1CCN(Cc2ccc(C(=O)Nc3ccc(C)c(NCc4cnc5[nH]ccc5c4OC)c3)cc2C(F)(F)F)CC1", "test": "binding, competition with immobilised ligand", "conditions": "1 µM", "quantity": "remaining binding", "result": "41%"}
